Results from different studies.
Every numbered part comes from another study and shows a few of its results, in no order. Positions count from the first letter of the parent shown.
Sequence of UniProt P51668 (whole entry, looked up): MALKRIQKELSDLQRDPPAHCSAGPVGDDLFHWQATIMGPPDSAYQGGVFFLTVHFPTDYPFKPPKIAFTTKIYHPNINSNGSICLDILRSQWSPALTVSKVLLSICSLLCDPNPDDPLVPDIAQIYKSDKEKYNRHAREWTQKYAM
Sequence of UniProt Q712K3 (whole entry, looked up): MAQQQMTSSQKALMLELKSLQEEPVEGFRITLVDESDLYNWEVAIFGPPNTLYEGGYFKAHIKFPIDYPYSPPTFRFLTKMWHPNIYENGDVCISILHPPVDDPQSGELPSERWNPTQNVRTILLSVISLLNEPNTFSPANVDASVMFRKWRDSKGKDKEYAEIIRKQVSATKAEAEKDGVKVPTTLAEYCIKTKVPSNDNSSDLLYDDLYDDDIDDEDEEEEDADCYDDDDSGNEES
Sequence of UniProt Q9H832 (whole entry, looked up): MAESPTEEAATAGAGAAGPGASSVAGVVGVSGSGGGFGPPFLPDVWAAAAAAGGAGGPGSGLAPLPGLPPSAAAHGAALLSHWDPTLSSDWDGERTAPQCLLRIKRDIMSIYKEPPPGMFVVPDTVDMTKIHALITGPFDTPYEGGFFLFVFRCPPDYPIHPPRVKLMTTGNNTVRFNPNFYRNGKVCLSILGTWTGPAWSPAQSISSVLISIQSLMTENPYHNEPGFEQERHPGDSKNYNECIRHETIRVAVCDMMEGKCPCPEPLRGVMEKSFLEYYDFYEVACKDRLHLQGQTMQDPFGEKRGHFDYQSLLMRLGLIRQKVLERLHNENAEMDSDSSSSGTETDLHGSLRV
Sequence of UniProt P61081 (whole entry, looked up): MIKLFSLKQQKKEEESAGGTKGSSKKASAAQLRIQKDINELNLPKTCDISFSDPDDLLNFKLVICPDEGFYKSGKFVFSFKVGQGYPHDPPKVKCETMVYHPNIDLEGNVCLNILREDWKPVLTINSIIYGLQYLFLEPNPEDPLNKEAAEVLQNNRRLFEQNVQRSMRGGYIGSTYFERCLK
Sequence of UniProt O00762 (whole entry, looked up): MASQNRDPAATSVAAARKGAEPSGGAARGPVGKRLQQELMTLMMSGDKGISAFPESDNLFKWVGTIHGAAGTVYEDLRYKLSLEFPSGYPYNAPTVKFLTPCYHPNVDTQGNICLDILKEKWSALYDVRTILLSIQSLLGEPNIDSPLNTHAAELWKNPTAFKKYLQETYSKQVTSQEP
Sequence of UniProt P62253 (whole entry, looked up): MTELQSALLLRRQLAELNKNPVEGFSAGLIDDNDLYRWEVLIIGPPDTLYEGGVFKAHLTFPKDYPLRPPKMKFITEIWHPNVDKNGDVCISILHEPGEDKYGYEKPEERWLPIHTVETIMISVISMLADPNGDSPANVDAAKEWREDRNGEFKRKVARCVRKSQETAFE

Block 1
Target: CCNE1, cyclin fold, Cln2 fusion (human)
Method: yeast growth competition, sequencing
Matrix: yeast
Setting: strong parent motif
Relative to: not given
Reading: higher = stronger binding
Starting sequence: E2F3 docking peptide (human); PPAKRRLELGESG; partner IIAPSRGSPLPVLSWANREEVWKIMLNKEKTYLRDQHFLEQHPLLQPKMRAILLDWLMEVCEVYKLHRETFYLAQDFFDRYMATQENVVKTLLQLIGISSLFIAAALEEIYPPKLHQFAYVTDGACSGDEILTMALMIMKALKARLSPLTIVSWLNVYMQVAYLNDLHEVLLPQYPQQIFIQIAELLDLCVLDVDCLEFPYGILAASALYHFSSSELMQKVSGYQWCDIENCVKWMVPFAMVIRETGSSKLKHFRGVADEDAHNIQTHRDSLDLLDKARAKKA
Change	normalised enrichment score
R5A	0.484
R5A L7A	0.076
R6A	0.317
G13A	0.365
G10A	1.2
R5K	-0.386
R5K L9F	2.5
P2A	0.944
P1A	0.595

Block 2
Sequence: B1 (TRIM72 RING domain)
Method: yeast two-hybrid
Matrix: yeast
Setting: mostly zero background
Relative to: not given
Reading: higher = stronger interaction
B1: TRIM72 RING domain (UniProt Q6ZMU5); chain APGLLHQELSCPLCLQLFDAPVTAECGHSFCRACLGRVAGEPAADGTVLCPCCQAPTRPQALST
target	lacZ reporter activity
UBE2D1 UBC core domain (UniProt P51668)	0
UBE2C UBC core domain (UniProt O00762)	0
UBE2M UBC core domain (UniProt P61081)	0
UBE2R2 UBC core domain (UniProt Q712K3)	0
UBE2Z UBC core domain (UniProt Q9H832)	0
BIRC6 UBC core domain (UniProt Q9NR09)	0
UBE2G1 UBC core domain (UniProt P62253)	0

Block 3
Target: ABI1, truncated, D143A, DHFR fusion (Arabidopsis thaliana)
Method: DHFR PCA, deep sequencing
Matrix: yeast
Setting: methotrexate growth selection, single substitutions
Together with: (+)-ABA 0.032 µM
Relative to: wild-type fitted maximum
Reading: higher = stronger binding
Starting sequence: PYL1, truncated, DHFR fusion (Arabidopsis thaliana); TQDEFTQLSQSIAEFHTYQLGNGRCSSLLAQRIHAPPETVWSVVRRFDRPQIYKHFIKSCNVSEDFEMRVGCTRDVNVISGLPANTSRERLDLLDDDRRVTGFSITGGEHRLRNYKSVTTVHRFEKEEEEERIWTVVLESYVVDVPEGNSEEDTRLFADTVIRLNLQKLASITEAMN
Change	relative binding score
Y53H	7.23%
I79S	18.7%
N77V	57.6%
H55F	11.5%
S87E	-4.12%
R163D	-0.627%
R24V	13.5%
V121T	1.6%
Q10A	45.1%
R46T	-0.49%
R90Y	-0.841%
F124M	45.6%
R45D	1.68%
R113I	19.4%
S104N	4.29%
V100W	-4.13%
R45V	-2.21%
V40W	-0.34%
T119V	2.21%
L29Q	6.06%
S104W	-3.81%
S26N	-5.19%

Block 4
Target: RING finger protein unkempt homolog, zinc fingers 1-6, GST-SBP tag (UNK, Homo sapiens, UniProt Q9C0B0, residues 30-357)
Sequence of UniProt Q9C0B0 (30-357, looked up): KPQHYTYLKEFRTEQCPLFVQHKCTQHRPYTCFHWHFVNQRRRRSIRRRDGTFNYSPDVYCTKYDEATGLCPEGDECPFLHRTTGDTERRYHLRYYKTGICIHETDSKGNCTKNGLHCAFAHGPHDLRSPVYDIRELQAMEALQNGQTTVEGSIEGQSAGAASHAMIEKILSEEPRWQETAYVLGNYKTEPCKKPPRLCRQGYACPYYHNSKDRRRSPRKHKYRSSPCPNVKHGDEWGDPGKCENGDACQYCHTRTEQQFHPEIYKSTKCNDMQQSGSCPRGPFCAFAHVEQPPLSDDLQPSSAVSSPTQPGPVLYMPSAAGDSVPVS
Method: RNA Bind-n-Seq
Form: RNA
Matrix: in vitro
Concentration: not given
Setting: RNA with constant flanks, human and mouse sites, ends assumed
Relative to: input RNA pool
Reading: higher = stronger binding
Shared flanks, not repeated: GGGAGUUCUACAGUCCGACGAUC … CAACAGAGGAUUGAGCAUCA
Strand	bound/input enrichment [ratio]
AUCGAACCUGUACAACCUCCCCCACCUUCUGUACCAGUGGUAGCUGAUCAAAGAACCAUAACAUUUACAUCAUCAAAAAAUGAAGAACUACAAGGAAAUGAUUCCAAAAUUACUCCUUCC	0.203
AAAGAGAAUGGAGAAGUAAAGAUUUUGCUGAAAAGUGGGAAGGAGAAACCAAAAACAAAUAUAGAAGACUUACAAAUUAAAAAGGUAAAGAAGAAAAAGAAAAAGAAACACAAAGAGAAU	13.8
GAAGAAAGCAAUAAGUUCUAUAAGGACAACAUUAAGGCUGGUCAGCAGGGAUUAUCAGUUGCCUUUGAUCUGGCGACACAUCGUGGCUAUGAUUCAGACAACCCUCGAGUUCGUGGUGAU	0.186
AACAUGACUAUUACUAAUGACUACCAGCACCUGCUUGUCAAUUCCAUUGCCAACUUUUUCCGCUUGUUAUCUCAGGGGGGUGGAAAAAUCAAGGUUGAGAUUCUGAAAAUACUUUCAAAC	0.304
UUCUACAGUAUUCCUGAAUUUGACGAAUGGAAAAAACAUAUAGAAAACCAGAAAGCCUGGAAAAUAAAGUACUAUAAAGGAUUGGGUACUAGUACAGCUAAAGAAGCAAAGGAAUAUUUU	1.26
UCUGCCACCCAGCAGAAGAAAAACACCAAACUCUCUAGCAAAACGACUGCUAAGUUAUCCACUAGUGCUAAAAGAAUUCAGAAGGAGCUAGCAGAGAUAACCCUUGAUCCUCCUCCUAAC	0.657
UAUUGUGAUAUGACAAGAGACUUAACUUAUCUUGCUCUGUCUUCCACUGUACACGCUGUAUAUAGGGGUCAAUGUGAUGCUGCUGGAGACGAGAAUAAACUGGACUAGAAUAGUGCAUUG	0.61
CACUAUCAGUAUGAUCGAUCAGGGCCAUAUGGUUAUAGAGGGAUUGGGGGAAUGAAGCCUUCCAUGUCUGACACAAAUUUAGCAGAAGCUGGACAUUUUUUCUAUAAAAGUAAGAAUGCU	1.39

For quick reference, copied from above (block 4):
Strand	bound/input enrichment [ratio]
CACUAUCAGUAUGAUCGAUCAGGGCCAUAUGGUUAUAGAGGGAUUGGGGGAAUGAAGCCUUCCAUGUCUGACACAAAUUUAGCAGAAGCUGGACAUUUUUUCUAUAAAAGUAAGAAUGCU	1.39
GAAGAAAGCAAUAAGUUCUAUAAGGACAACAUUAAGGCUGGUCAGCAGGGAUUAUCAGUUGCCUUUGAUCUGGCGACACAUCGUGGCUAUGAUUCAGACAACCCUCGAGUUCGUGGUGAU	0.186
UCUGCCACCCAGCAGAAGAAAAACACCAAACUCUCUAGCAAAACGACUGCUAAGUUAUCCACUAGUGCUAAAAGAAUUCAGAAGGAGCUAGCAGAGAUAACCCUUGAUCCUCCUCCUAAC	0.657
UAUUGUGAUAUGACAAGAGACUUAACUUAUCUUGCUCUGUCUUCCACUGUACACGCUGUAUAUAGGGGUCAAUGUGAUGCUGCUGGAGACGAGAAUAAACUGGACUAGAAUAGUGCAUUG	0.61
AACAUGACUAUUACUAAUGACUACCAGCACCUGCUUGUCAAUUCCAUUGCCAACUUUUUCCGCUUGUUAUCUCAGGGGGGUGGAAAAAUCAAGGUUGAGAUUCUGAAAAUACUUUCAAAC	0.304
AAAGAGAAUGGAGAAGUAAAGAUUUUGCUGAAAAGUGGGAAGGAGAAACCAAAAACAAAUAUAGAAGACUUACAAAUUAAAAAGGUAAAGAAGAAAAAGAAAAAGAAACACAAAGAGAAU	13.8
